Measured values gathered from unrelated publications.
“And” joins repeats or separate records; there may be more than shown. ± gives the spread as reported.
Chain of UniProt Q14680 (whole entry, looked up): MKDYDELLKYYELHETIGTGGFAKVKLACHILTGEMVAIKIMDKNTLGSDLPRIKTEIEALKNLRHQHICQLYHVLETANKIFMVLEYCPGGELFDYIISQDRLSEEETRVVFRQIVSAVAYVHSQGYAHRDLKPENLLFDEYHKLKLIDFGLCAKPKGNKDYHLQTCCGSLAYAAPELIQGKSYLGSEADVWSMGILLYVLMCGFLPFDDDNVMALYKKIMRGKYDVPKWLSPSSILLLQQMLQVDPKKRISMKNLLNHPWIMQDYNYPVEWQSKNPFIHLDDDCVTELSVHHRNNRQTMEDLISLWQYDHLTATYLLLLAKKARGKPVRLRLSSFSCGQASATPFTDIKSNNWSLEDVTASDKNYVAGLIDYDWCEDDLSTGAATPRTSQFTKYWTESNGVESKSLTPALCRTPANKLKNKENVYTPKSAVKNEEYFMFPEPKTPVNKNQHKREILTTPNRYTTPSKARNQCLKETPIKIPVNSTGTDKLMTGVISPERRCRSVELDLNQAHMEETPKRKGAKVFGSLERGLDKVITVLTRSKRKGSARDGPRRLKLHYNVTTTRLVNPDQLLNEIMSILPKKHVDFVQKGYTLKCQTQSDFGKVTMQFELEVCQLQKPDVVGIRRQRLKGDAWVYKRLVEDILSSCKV

`CC[C@H](C)[C@H](NC(=O)[C@H](Cc1ccccc1)NC(=O)[C@H](CCC(=O)O)NC(=O)[C@H](CCCNC(=N)N)NC(=O)[C@H](C)NC(=O)[C@H](C)NC(=O)[C@H](CCC(N)=O)NC(=O)[C@H](CCC(=O)O)NC(=O)[C@H](CCC(=O)O)NC(=O)[C@H](CC(C)C)NC(=O)[C@H](Cc1ccc(O)cc1)NC(=O)[C@H](CO)NC(=O)[C@H](CO)NC(=O)[C@@H](NC(=O)[C@H](CC(=O)O)NC(=O)[C@H](CO)NC(=O)[C@@H](NC(=O)[C@H](Cc1ccccc1)NC(=O)[C@@H](NC(=O)CNC(=O)[C@H](CCC(=O)O)NC(=O)[C@H](C)NC(=O)CCc1c[nH]cn1)[C@@H](C)O)[C@@H](C)O)C(C)C)C(=O)N[C@@H](C)C(=O)N[C@@H](Cc1c[nH]c2ccccc12)C(=O)N[C@@H](CC(C)C)C(=O)N[C@H](C(=O)N[C@@H](CCCNC(=N)N)C(=O)NCC(=O)N[C@@H](CCCNC(=N)N)C(=O)N[C@@H](CCCCNC(=O)COCCOCCNC(=O)COCCOCCNC(=O)CC[C@H](NC(=O)CCCCCCCCCCCCCCCCC(=O)O)C(=O)O)C(=O)NCC(=O)NCC(=O)N[C@@H](CO)C(=O)N[C@@H](CCCCNc1c(NCCCCCN(O)C(=O)CCC(=O)NCCCCCN(O)C(=O)CCC(=O)NCCCCCN(O)C(C)=O)c(=O)c1=O)C(=O)O)C(C)C` [zirconium-89 labelled] has a tissue uptake of 0.53 %ID/g (rat, spleen; iv, 3 nmol/kg, 168 h, ex vivo).
For `CN1CCN(S(=O)(=O)c2cc([N+](=O)[O-])ccc2N(CCOS(C)(=O)=O)CCOS(C)(=O)=O)CC1`, “EFS delay (T-C)” read over 375 days (NSG mice, sample CB PDX; intraperitoneal, 25 mg/kg weekly x3; relative to: vehicle).
`FC(F)(F)c1ccc2c(c1)[C@@H]1CNC[C@H]2C1` has an ethanol preference of 46 ± 4% (intermittent two-bottle choice; Wistar rat, 20% ethanol drinking; subcutaneous, 1 mg/kg, 24 h; relative to: ethanol over total fluid intake).
For `CCCCC1CNC2CCc3ccc(OC)cc3C12.Cl` (racemic), “trials to criterion” read “decreased” (memory retention, avoidance, foot shock, T-maze; SAMP8 mice; intracerebroventricular, 0.01 µg, 7 days; relative to: vehicle).
`[Cl][Ru-]([Cl])([Cl])[Cl].[Na+].c1ccc2[nH]ncc2c1.c1ccc2[nH]ncc2c1` — result for “duration of response”: 19 weeks (CT, RECIST 1.1; human; 420 mg/m2).
For `COc1cc2c(Oc3ccc4[nH]c(C)cc4c3F)ccnc2cc1OCC1(N)CC1`, “grade 1 or 2 Triglyceride elevation” read 18.2% (paediatric recurrent refractory sarcoma; 12 mg).
`NNc1ccccc1` gave a normalised absorbance of 0.869 (hydrazine ligation kinetics, absorbance; concentration not given, 20 s, added: 2-formylphenylboronic acid).
The relative abundance of `C[C@H]1CN(c2n[nH]c3nc(N[C@H]4CC[C@H](NS(=O)(=O)CCC(F)(F)F)CC4)ncc23)CCO1` is reported as 1.08 (Maternal embryonic leucine zipper kinase (MELK, Homo sapiens, UniProt Q14680); inhibitor, Kinobeads competition profiling; 20 µM; relative to: vehicle).
Under “log2 fold change”, `CC[C@H](C)[C@@H]1NC(=O)[C@@H]2CCCN2C(=O)[C@H](CC(C)C)NC(=O)[C@H](CC(C)C)NC(=O)CNC(=O)[C@@H](NC(=O)[C@@H](NC(=O)[C@H](CC(=O)O)NC(=O)CNC(=O)[C@@H](NC(=O)[C@H](C)NC(=O)CNC(=O)[C@H](CCCCN)NC(=O)[C@H](CC(C)C)NC(=O)[C@H](CC(C)C)NC(=O)[C@H](CCCCN)NC(=O)CNC(=O)[C@@H](NC(=O)[C@@H](N)CC(C)C)C(C)C)C(C)C)C(C)C)CSSC[C@@H](C(=O)O)NC1=O` is recorded as 0.666 (RNA-seq, refers to: Lypd6; mouse, traumatic brain injury model, frontal cortex and hippocampus; dose not given; relative to: TBI alone).
`C[C@H]1O[C@@H](O[C@H]2CC[C@@]3(C)[C@@H](CC[C@]4(C)[C@@H]3C=C[C@]35OC[C@@]6(CCC(C)(C)C[C@H]63)[C@@H](O)C[C@]54C)[C@]2(C)CO)[C@H](O)[C@@H](O[C@@H]2O[C@H](CO)[C@@H](O)[C@H](O)[C@H]2O)[C@H]1O` has a steatosis area of 22.2% and 27.3% and 27.8% and 22% and 18.7% and 21.9% and 25.7% (H&E staining; hepatic SIRT1 knockdown mice, chronic-plus-binge ethanol, liver; dose not given, AAV8-TBG-shRNA, high dose).
For `CCCCC1(CCCC)CN(c2ccccc2)c2cc(SC)c(OCC(=O)N[C@@H](C(=O)NCC(=O)O)c3ccccc3)cc2S(=O)(=O)C1`, the serum HDL-C was 49.8 mg/dL (refers to: HDL cholesterol; human, serum; 10 mg once daily, day 9).
For `CC[C@@H](C)[C@@H](NC(=O)[C@@H](Cc1ccc(O)cc1)NC(=O)[C@H]1CCCN1C(=O)[C@@H](CCCNC(=N)N)NC(=O)[C@H](N)Cc1c[nH]cn1)C(=O)N[C@H](C)C(=O)N[C@H](Cc1c[nH]cn1)C(=O)N[C@H](CCCNC(=N)N)C(=O)N[C@H](CCCCNC(=O)c1cccc(S(=O)(=O)F)c1)C(=O)N[C@H](Cc1ccc(O)cc1)C(=O)N[C@H](CO)C(=O)N[C@H](Cc1ccccc1)C(N)=O`, “IFN-γ+ CD8+ T cells” read 7.71% and 6.61% and 6.36% and 9.58% (ex vivo flow cytometry; MC-38 tumour-bearing mice, spleen; 3.9 mg/kg; relative to: CD8+ T cells).
For `C[C@@H](O)[C@@H](CO)NC(=O)[C@@H](CCCNC(=N)N)NC(=O)[C@@H]1CCCN1C(=O)[C@@H]1CSSC[C@H](NC(=O)[C@H](Cc2ccccc2)NC(=O)CN2CCN(CC(=O)O)CCN(CC(=O)O)CCN(CC(=O)O)CC2)C(=O)N[C@@H](Cc2ccc(O)cc2)C(=O)N[C@@H](Cc2ccccc2)C(=O)N[C@@H](CCC(N)=O)C(=O)N[C@@H](CC(N)=O)C(=O)N1` [gallium-68 labelled], the tissue uptake was 0.36 %ID/g (healthy Wistar rat, stomach; intravenous, 8 MBq, 30 min, individual animals).

Excerpt of the above:
The relative abundance of `C[C@H]1CN(c2n[nH]c3nc(N[C@H]4CC[C@H](NS(=O)(=O)CCC(F)(F)F)CC4)ncc23)CCO1` is reported as 1.08 (Maternal embryonic leucine zipper kinase (MELK, Homo sapiens, UniProt Q14680); inhibitor, Kinobeads competition profiling; 20 µM; relative to: vehicle).
Under “log2 fold change”, `CC[C@H](C)[C@@H]1NC(=O)[C@@H]2CCCN2C(=O)[C@H](CC(C)C)NC(=O)[C@H](CC(C)C)NC(=O)CNC(=O)[C@@H](NC(=O)[C@@H](NC(=O)[C@H](CC(=O)O)NC(=O)CNC(=O)[C@@H](NC(=O)[C@H](C)NC(=O)CNC(=O)[C@H](CCCCN)NC(=O)[C@H](CC(C)C)NC(=O)[C@H](CC(C)C)NC(=O)[C@H](CCCCN)NC(=O)CNC(=O)[C@@H](NC(=O)[C@@H](N)CC(C)C)C(C)C)C(C)C)C(C)C)CSSC[C@@H](C(=O)O)NC1=O` is recorded as 0.666 (RNA-seq, refers to: Lypd6; mouse, traumatic brain injury model, frontal cortex and hippocampus; dose not given; relative to: TBI alone).
